Experimental data from different studies.
Each line is one published result; not all experiments were run side by side. Several values in a cell are separate wells, animals, samples, runs or records. ± marks the error that the study gave.
HCRTR2 del254-292/I293E/K294R/L160H/M161K/Q254E: Orexin receptor type 2 (HCRTR2, Homo sapiens, UniProt O43614, del254-292/I293E/K294R/L160H/M161K/Q254E)

| Compound | tested on | assay | test system | setting | scale | measurement | value |
| --- | --- | --- | --- | --- | --- | --- | --- |
| CC(C)CN1CCc2ccc(Br)cc21 | Plasmodium falciparum |  | 7G8 |  |  | IC50 | 10 µM |
| CCN(CC)C(=O)[C@@H]1C=C2c3cccc4[nH]cc(c34)C[C@H]2N(C)C1 | Cholinesterase (BCHE, Homo sapiens, UniProt P06276) |  |  | concentration not given, Triton |  | efficacy | -93.8 ± 3.71% |
| O=c1[nH]c2nc(-c3ccccc3)sc2c(=O)n1O | Ketol-acid reductoisomerase (NADP(+)) (ilvC, Mycobacterium tuberculosis, UniProt P9WKJ7) | slow-binding inhibitor |  | no pre-incubation |  | kon | 2260 M⁻¹ s⁻¹ |
| CC(COc1ccccc1)N(CCCl)Cc1ccccc1 (centres unmarked) | Plasmodium falciparum |  | 7G8 |  |  | IC50 | 7.94 µM |
| CCCCCCC(C)(C)c1ccc([C@@H]2C[C@H](O)CC[C@H]2CCCO)c(O)c1 | Probable G-protein coupled receptor 132 (GPR132, Homo sapiens, UniProt Q9UNW8) | agonist |  |  |  | Emax | 100% |
| CNC(=O)[C@@H](c1ccccc1)N1CCc2cc(OC)c(OC)cc2[C@@H]1CCc1ccc(C(F)(F)F)cc1 | HCRTR2 del254-292/I293E/K294R/L160H/M161K/Q254E | fluorescence sensor response, fluorescence |  | concentration not given |  | normalised fluorescence response | -0.519 and -2.17 and -2.14 and -0.661 |
| CN[C@@]1(c2ccccc2Cl)CCCCC1=O | Neuronal acetylcholine receptor; alpha4/beta2 (Homo sapiens, UniProt P17787+P43681) | radioligand binding, agonist, radioligand displacement |  | 30 µM |  | inhibition | -5% |
| Oc1ccc2c3c1O[C@H]1[C@@H](O)CC[C@@]4(O)[C@@H](C2)N(CC2CCC2)CC[C@]314 | G-protein coupled receptor family C group 6 member A (GPRC6A, Homo sapiens, UniProt Q5T6X5) | β-arrestin recruitment, TANGO luminescence, measured: GPRC6A |  | concentration not given | baseline: basal luminescence | log2 fold change | 0.307 |
| CCCc1cc(O)c2c(c1)OC(C)(C)[C@@H]1CCC(C)=C[C@@H]21 | Transient receptor potential cation channel subfamily V member 3 (TRPV3, Homo sapiens, UniProt Q8NET8, S444A) | calcium uptake, agonist | HEK293S | mutant S444A, site 2 |  | Hill coefficient | 2.08 ± 0.24 |
| CCCCCCCC[C@H]1O[C@H]1C/C=C/C=C/[C@H](O)CC(=O)NC1=C[C@](C)(CC)OC1=O | Na(+)-translocating NADH-quinone reductase subunit B, whole Na+-NQR complex (nqrB, Vibrio cholerae serotype O1, UniProt Q9KPS2, G141A) | binding, isothermal titration calorimetry |  | 20 °C, NqrB-G141A mutant |  | ΔH | -68 ± 23 kcal/mol |
| c1ccc2cc([C@]34CNC[C@H]3C4)ccc2c1 | Sodium-dependent dopamine transporter (SLC6A3, Homo sapiens, UniProt Q01959, V152A) | inhibitor, [3H]dopamine uptake |  | 1 nM, V152A mutant | baseline: no inhibitor | dopamine uptake | 88.8% and 96.6% and 95.3% |
| C=CCN1CC[C@]23c4c5ccc(O)c4O[C@H]2C(=O)CC[C@]3(O)[C@H]1C5 | Cysteinyl leukotriene receptor 1 (CYSLTR1, Homo sapiens, UniProt Q9Y271) |  |  | concentration not given |  | inhibition | -3.9% |
| Cc1ccc(-n2nccn2)c(C(=O)N2CCN(c3nc4cc(Cl)ccc4o3)CC[C@H]2C)c1 | HCRTR2 del254-292/I293E/K294R/L160H/M161K/Q254E | fluorescence sensor response, fluorescence |  | concentration not given, together with: OXA |  | normalised fluorescence response | 0.235 and -0.289 and -0.33 and -0.187 and -0.138 and -0.0669 |
| CC(C)C[C@H](NC(=O)C[C@H](O)[C@H](CC(C)C)NC(=O)[C@H](Cc1c[nH]cn1)NC(=O)CNC(=O)[C@@H](NC(=O)[C@H](C)NC(=O)[C@H](Cc1c[nH]c2ccccc12)NC(=O)[C@H](CCC(N)=O)NC(=O)[C@@H](Cc1ccccc1)NC(=O)CCNC(=O)CCSc1nnc(NCCC(=O)NCCC(=O)NCCCC[C@H](NC(=O)N[C@@H](CCC(=O)O)C(=O)O)C(=O)O)c2c1CCC1C(CC2)C1COC(=O)NCCNC(=O)CC[C@H](C(=O)O)N1CCN(CC(=O)O)CCN(CC(=O)O)CC1)C(C)C)C(N)=O (some centres unmarked) [gallium-68 labelled] |  |  | athymic NMRI nude mouse, kidneys | intravenous, dose not given, 2 h, together with: bombesin 480 nmol (GRPR blocking) |  | tissue uptake | 21.3 %ID/g |

For quick reference, copied from above:
| Compound | tested on | assay | test system | setting | scale | measurement | value |
| --- | --- | --- | --- | --- | --- | --- | --- |
| Cc1ccc(-n2nccn2)c(C(=O)N2CCN(c3nc4cc(Cl)ccc4o3)CC[C@H]2C)c1 | HCRTR2 del254-292/I293E/K294R/L160H/M161K/Q254E | fluorescence sensor response, fluorescence |  | concentration not given, together with: OXA |  | normalised fluorescence response | 0.235 and -0.289 and -0.33 and -0.187 and -0.138 and -0.0669 |
| c1ccc2cc([C@]34CNC[C@H]3C4)ccc2c1 | Sodium-dependent dopamine transporter (SLC6A3, Homo sapiens, UniProt Q01959, V152A) | inhibitor, [3H]dopamine uptake |  | 1 nM, V152A mutant | baseline: no inhibitor | dopamine uptake | 88.8% and 96.6% and 95.3% |
